Measured values pooled from the literature.
Each numbered part is a random draw from the data of one study; scales do not carry over between parts. Several values in a cell are separate wells, animals, samples, runs or records.
Sequence of UniProt P15170 (whole entry, looked up): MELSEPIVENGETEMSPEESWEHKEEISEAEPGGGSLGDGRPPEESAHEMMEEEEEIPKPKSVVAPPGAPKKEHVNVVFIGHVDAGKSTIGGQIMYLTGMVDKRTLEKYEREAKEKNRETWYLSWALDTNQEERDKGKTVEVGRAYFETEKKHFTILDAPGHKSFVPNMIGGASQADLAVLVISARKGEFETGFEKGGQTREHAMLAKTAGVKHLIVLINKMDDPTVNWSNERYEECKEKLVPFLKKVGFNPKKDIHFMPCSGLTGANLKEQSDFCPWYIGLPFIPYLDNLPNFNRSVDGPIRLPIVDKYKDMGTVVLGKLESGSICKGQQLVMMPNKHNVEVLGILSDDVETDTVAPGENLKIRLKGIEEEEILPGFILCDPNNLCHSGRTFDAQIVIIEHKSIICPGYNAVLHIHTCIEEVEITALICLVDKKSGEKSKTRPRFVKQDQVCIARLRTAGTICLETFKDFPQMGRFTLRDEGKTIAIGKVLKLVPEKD

Study 1 — mode: degrader; method: HiBiT; cells: HEK293
Structure (SMILES): Cn1cc(-c2cccc(CN3CCC4(CC3)COc3c4ccc4c3CN([C@@H]3CCC(=O)NC3=O)C4=O)c2)cn1
Zinc finger protein Aiolos: Zinc finger protein Aiolos (Homo sapiens, UniProt Q9UKT9)
Sequence of UniProt Q9UKT9 (whole entry, looked up): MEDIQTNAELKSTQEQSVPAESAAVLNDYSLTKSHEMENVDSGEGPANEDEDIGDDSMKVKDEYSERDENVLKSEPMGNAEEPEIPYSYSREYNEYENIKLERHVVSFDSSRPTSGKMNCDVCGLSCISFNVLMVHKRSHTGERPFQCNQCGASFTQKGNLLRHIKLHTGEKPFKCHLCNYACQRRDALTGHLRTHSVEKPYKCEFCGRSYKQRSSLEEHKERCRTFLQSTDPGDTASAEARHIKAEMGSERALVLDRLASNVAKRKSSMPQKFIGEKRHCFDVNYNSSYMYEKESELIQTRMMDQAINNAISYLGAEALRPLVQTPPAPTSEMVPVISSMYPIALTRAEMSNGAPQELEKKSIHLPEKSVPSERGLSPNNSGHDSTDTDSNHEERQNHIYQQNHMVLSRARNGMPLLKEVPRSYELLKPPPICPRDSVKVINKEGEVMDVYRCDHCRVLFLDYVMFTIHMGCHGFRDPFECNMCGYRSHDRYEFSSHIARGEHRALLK
SALL4: Sal-like protein 4 (SALL4, Homo sapiens, UniProt Q9UJQ4)
Sequence of UniProt Q9UJQ4 (whole entry, looked up): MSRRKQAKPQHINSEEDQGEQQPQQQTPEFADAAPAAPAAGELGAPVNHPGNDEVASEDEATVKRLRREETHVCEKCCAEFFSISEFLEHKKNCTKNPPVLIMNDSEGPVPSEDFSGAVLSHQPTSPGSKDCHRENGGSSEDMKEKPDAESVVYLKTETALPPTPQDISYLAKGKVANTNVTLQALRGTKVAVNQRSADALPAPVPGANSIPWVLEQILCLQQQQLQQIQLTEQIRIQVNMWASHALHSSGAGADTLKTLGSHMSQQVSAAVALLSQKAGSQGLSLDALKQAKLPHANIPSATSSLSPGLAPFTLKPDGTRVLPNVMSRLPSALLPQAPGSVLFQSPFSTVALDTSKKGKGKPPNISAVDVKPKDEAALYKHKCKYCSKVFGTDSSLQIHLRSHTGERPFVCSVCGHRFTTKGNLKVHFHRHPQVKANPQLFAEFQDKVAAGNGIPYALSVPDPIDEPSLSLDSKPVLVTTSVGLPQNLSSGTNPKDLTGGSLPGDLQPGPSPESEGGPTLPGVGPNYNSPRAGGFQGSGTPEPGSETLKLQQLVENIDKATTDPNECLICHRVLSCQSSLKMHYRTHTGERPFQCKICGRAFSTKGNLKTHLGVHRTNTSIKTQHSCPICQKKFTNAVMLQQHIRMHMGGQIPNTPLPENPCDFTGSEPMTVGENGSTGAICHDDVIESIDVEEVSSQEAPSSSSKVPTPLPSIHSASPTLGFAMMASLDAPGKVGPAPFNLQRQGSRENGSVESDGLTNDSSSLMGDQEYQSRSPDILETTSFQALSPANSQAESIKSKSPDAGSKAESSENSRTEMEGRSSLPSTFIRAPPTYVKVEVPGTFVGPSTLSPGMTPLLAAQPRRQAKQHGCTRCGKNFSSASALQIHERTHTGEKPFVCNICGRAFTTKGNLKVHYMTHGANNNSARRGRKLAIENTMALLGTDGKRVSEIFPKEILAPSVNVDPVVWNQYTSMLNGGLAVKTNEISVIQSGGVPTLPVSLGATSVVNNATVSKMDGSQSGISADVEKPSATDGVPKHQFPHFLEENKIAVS
CSNK1A1: Casein kinase I isoform alpha (CSNK1A1, Homo sapiens, UniProt P48729)
Sequence of UniProt P48729 (whole entry, looked up): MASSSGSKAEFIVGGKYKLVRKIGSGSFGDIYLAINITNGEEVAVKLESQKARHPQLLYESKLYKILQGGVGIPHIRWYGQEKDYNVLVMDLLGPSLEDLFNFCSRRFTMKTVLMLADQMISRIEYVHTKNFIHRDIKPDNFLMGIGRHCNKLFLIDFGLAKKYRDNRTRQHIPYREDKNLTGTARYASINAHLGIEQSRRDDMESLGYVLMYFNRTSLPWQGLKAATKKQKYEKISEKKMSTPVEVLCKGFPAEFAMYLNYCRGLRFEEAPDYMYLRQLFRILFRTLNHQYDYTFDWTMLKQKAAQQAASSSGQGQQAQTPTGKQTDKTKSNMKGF
It gave 103% and 96.4% for remaining protein (Zinc finger protein Aiolos; 1111.11 nM).
SALL4; 123.5 nM — remaining protein: 93.7% and 83.7%.
The remaining protein was 104% and 88.5% (SALL4; 13.72 nM).
The remaining protein was 103% and 99.5% (CSNK1A1; 4.572 nM).
It gave 100% and 99.8% for remaining protein (Zinc finger protein Aiolos; 13.72 nM).
For CSNK1A1; 370.37 nM: remaining protein read 93.9% and 97.6%.
Zinc finger protein Aiolos; 370.37 nM — remaining protein: 95.4% and 103%.
For CSNK1A1; 1.524 nM: remaining protein read 97% and 93.1%.
The remaining protein was 101% and 97.9% (CSNK1A1; 10000 nM).
For SALL4; 370.37 nM: remaining protein read 73.8% and 83.2%.
For GSPT1 (Homo sapiens, UniProt P15170); 1111.11 nM: remaining protein read 94.5% and 101%.

Study 2 — route: intrathecal
SMILES: COc1cc(C(=O)OCCCN2CCCN(CCCOC(=O)c3cc(OC)c(OC)c(OCc4ccc([N+](=O)[O-])cc4)c3)CC2)cc(OC)c1OC
male mouse, formalin pain; 1 nmol, 0 to 5 min — licking duration: 134 s and 187 s and 193 s and 160 s.
It gave 162 s and 191 s and 180 s and 193 s for licking duration (female mouse, formalin pain; 100 nmol, 0 to 10 min).
female mouse, formalin pain; 10 nmol, 0 to 10 min — licking duration: 189 s and 228 s and 260 s and 182 s.
female mouse, formalin pain; 1 nmol, 0 to 5 min — licking duration: 159 s and 174 s and 184 s and 200 s.
The licking duration was 181 s and 177 s and 164 s and 213 s (female mouse, formalin pain; 10 nmol, 0 to 5 min).
For male mouse, formalin pain; 10 nmol, 0 to 5 min: licking duration read 214 s and 191 s and 158 s and 199 s.

Study 3 — organism: Leishmania donovani; effect on: parasite growth; method: resazurin; setting: promastigote
`c1ccc2c(Nc3ccc4c(c3)OCCO4)c3c(nc2c1)CCC3` has an IC50 of 1.82 µM.
With `Fc1cccc(Nc2c3c(nc4ccccc24)CCC3)c1` the IC50 was 7.41 µM.
`Clc1ccc2nc3c(c(Nc4ccc5c(c4)OCCO5)c2c1)CCC3` has an IC50 of 0.7 µM.
`COc1cccc(Nc2c3c(nc4ccccc24)CCC3)c1` has an IC50 of 4.12 µM.
`Fc1ccc(Nc2c3c(nc4ccccc24)CCC3)cc1` has an IC50 of 6.58 µM.
`Clc1ccc(Nc2c3c(nc4ccccc24)CCC3)cc1` has an IC50 of 6.56 µM.
`Cc1ccc2nc3c(c(Nc4ccc(O)cc4)c2c1)CCC3` has an IC50 of 3.41 µM.
For `COC(=O)c1cccc(Nc2c3c(nc4ccccc24)CCC3)c1`, the IC50 was 4.71 µM.

Study 4
Compound: Cc1ccc(O)c(C)c1-c1cnc2[nH]c(-c3cnc(N4CCC(CN5CCN(c6cc7c(cc6F)n(C6CCC(=O)NC6=O)c(=O)n7C)CC5)CC4)nc3)cc2c1C#N (stereo not drawn)
Target: Membrane-associated tyrosine- and threonine-specific cdc2-inhibitory kinase (PKMYT1, Homo sapiens, UniProt Q99640)
Residues (Q99640 1-499): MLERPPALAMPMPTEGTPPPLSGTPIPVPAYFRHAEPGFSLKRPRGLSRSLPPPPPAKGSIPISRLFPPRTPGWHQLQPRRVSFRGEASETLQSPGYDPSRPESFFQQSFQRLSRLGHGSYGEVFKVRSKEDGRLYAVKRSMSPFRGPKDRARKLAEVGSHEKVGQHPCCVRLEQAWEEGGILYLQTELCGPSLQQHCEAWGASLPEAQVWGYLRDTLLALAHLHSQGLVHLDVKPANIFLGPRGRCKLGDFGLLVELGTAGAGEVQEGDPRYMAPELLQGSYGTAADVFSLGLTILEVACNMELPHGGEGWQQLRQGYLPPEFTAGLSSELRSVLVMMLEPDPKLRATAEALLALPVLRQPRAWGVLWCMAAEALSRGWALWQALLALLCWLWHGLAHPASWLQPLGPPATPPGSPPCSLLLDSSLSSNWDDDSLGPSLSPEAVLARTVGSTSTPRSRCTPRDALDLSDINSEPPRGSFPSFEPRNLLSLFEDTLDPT
It gave 98% for inhibition (cell-free assay, inhibitor, TR-FRET; 37.04 nM).
For cell-free assay, inhibitor, TR-FRET; 152 pM: inhibition read 1.67%.
For cell-free assay, inhibitor, TR-FRET; 4.12 nM: inhibition read 55.1%.
The inhibition was 21.5% (cell-free assay, inhibitor, TR-FRET; 1.37 nM).
The inhibition was 99.9% (cell-free assay, inhibitor, TR-FRET; 0.3333 µM).
0.00412 µM — inhibition: 54.4%.
The inhibition was 88.5% (cell-free assay, inhibitor, TR-FRET; 12.35 nM).
It gave 0.045% for inhibition (5.1e-05 µM).

A few entries again (study 1):
It gave 100% and 99.8% for remaining protein (Zinc finger protein Aiolos; 13.72 nM).
The remaining protein was 101% and 97.9% (CSNK1A1; 10000 nM).
SALL4; 123.5 nM — remaining protein: 93.7% and 83.7%.
For SALL4; 370.37 nM: remaining protein read 73.8% and 83.2%.
For GSPT1 (Homo sapiens, UniProt P15170); 1111.11 nM: remaining protein read 94.5% and 101%.
